Measurements collected from several papers.
A part holds a random share of what one study measured.

Sample 1
Target: Interferon regulatory factor 5, full length, phosphomimetic (IRF5, Homo sapiens, UniProt Q13568-2, residues 1-514, K96S/S451D/S453D/S456D/S462D)
Technique: protein-binding microarray
Molecule type: double-stranded DNA, one strand shown
Matrix: in vitro
Concentration: 250 nM
Setting: 60-bp whole probe
Together with: salmon DNA 0.4 mg/ml
Reference: random background probes
Reading: higher = stronger binding
Strand	log fluorescence [z-score]
GCCTAGCACGACGATCTCAGACTGGAGATGTGCTAGGTCTTGATTCGCTTGACGCTGCTG	-0.043
GCCTAGCACTTATATTTCGGGACTGGATTAGTGCTAGTCTTGATTCGCTTGACGCTGCTG	3.26
GCCTAGCACTCAGCTCTGTGCTTTCCTACTGTGCTAGTCTTGATTCGCTTGACGCTGCTG	-0.0199
GCCTAGCACTTATGTCTCCTACTGCTTTAGTGCTAGGTCTTGATTCGCTTGACGCTGCTG	0.254

Sample 2
Target: RNA binding protein fox-1 homolog 2, RRM domain, GST-SBP tag (RBFOX2, Homo sapiens, UniProt O43251-10, residues 100-194)
Technique: RNA Bind-n-Seq
Molecule type: RNA
Matrix: in vitro
Concentration: 365 nM
Setting: natural RNA segment, single round, ends assumed
Reference: no-protein control
Reading: higher = stronger binding
Strand	RBNS enrichment (R)
GGGAGUUCUACAGUCCGACGAUCAAAGGAAAAUACCAGAAUAUCUGGAAAGCUUGAAGUGUAAGAUGGGAUCUCGUUGGGGAAUUGGAUGAAGAAAAGCAGAGCGCCUCUGGUAGGUGACUCUGCAGCCUGCCUGGAAUUCUCGGGUGCCAA	1.71
GGGAGUUCUACAGUCCGACGAUCAACAUUUAAUAUUUGUCCACAUGGUUUUACAAAAGUAAAUCUUAAAUUACUAAGCUUUUCCCAUAUGUUCUCGUACUUUCUCAAAUCCCUAUAAAGAAUUACUUGUUAUCUGGAAUUCUCGGGUGCCAA	0.413
GGGAGUUCUACAGUCCGACGAUCUGUGUCCACAUCUAACAAAGUCAAGAUUCCCGGCUGGACUUUUGCAGCUUCCUUCCAAGUCUUCCUGACCACCUUGCACUAUUGGACUUUGGAAGGAGGUGCCUAUAGAAUGGAAUUCUCGGGUGCCAA	0.879

Sample 3
Target: Histone acetyltransferase KAT6A, winged helix 1, GST fusion (KAT6A, Homo sapiens, UniProt Q92794, residues 1-85)
Technique: protein binding microarray
Molecule type: double-stranded DNA, one strand shown
Matrix: in vitro
Concentration: not given
Setting: 8-mer, flanks averaged, mean of 2 arrays, mostly near background
Reference: not given
Reading: higher = stronger binding
Construct (chain): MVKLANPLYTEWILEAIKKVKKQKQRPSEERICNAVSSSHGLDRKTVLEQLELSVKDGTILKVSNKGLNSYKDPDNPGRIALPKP
Strand	E-score
GTGCCTTA	-0.168
GAATGTGC	0.0964
AGAGGATA	-0.327
CATATGCG	0.205

Further values, each from its own experiment
Substance	target	test	system	setting	scale	measurement	value
PhoQ, residues 284 288 289 292 302 303 GLASVI	PhoP, residues 12 14 15 18 19 NIMAP (Escherichia coli, UniProt P23836)	Sort-seq, item: YFP reporter	E. coli	PhoQ-PhoP variant library, together with: 10 µM Mg2+	reference: high Mg2+ state, higher = stronger signaling	fold induction	0.989

For quick reference, copied from above (sample 1):
Strand	log fluorescence [z-score]
GCCTAGCACTCAGCTCTGTGCTTTCCTACTGTGCTAGTCTTGATTCGCTTGACGCTGCTG	-0.0199
GCCTAGCACTTATATTTCGGGACTGGATTAGTGCTAGTCTTGATTCGCTTGACGCTGCTG	3.26
